# Experimental data pooled from the literature.
# Parts stem from different laboratories: compare values within a part only. Changes are numbered by the printed parent chain.

# Study 1
# Target: ABI1, truncated, D143A, DHFR fusion (Arabidopsis thaliana)
# Technique: DHFR PCA, deep sequencing
# Medium: yeast
# Setting: methotrexate growth selection, single substitutions
# With: (+)-ABA 0 µM
# Relative to: wild-type fitted maximum
# Direction: higher = stronger binding
# Parent: PYL1, truncated, DHFR fusion (Arabidopsis thaliana); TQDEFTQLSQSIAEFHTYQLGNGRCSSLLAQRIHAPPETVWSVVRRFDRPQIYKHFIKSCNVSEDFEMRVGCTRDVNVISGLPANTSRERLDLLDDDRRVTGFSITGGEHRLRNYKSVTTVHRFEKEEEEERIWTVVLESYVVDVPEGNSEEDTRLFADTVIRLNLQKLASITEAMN; partner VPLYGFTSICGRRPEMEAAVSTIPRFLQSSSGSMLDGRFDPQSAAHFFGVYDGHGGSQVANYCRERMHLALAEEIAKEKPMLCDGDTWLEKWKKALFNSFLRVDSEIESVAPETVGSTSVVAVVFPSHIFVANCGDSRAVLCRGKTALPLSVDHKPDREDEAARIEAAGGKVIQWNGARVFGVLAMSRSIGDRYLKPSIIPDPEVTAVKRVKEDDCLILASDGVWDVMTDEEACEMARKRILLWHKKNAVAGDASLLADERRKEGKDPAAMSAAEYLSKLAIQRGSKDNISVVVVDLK
Variant,relative binding score [%]
F103L,0.759
C25M,5.08
N61G,7.74
P50L,2.15
L8V,1.73
V145E,-2.73
H55N,9.11
D48K,-5.46

# Study 2
# Target: Histone acetyltransferase KAT6A, winged helix 2, GST fusion (KAT6A, Homo sapiens, UniProt Q92794, residues 85-181)
# Technique: protein binding microarray
# Form: double-stranded DNA, one strand shown
# Medium: in vitro
# Concentration: not given
# Setting: 8-mer, flanks averaged, mean of 2 arrays, mostly near background
# Relative to: not given
# Direction: higher = stronger binding
# Target sequence (chain): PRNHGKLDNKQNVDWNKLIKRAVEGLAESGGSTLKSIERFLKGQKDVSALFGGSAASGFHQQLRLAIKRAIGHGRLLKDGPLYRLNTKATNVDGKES
Oligonucleotide,E-score
CACGGACC,0.0761
AGGTCACT,0.052
CAACCGGA,0.03
ATTTAATA,0.255
ACCCTCTG,0.0387
CTCCCAAA,0.0375
AAGGCCGG,0.117
TCGCAACA,0.00901
GGCTCAAA,-0.0401
AATGCAGC,-0.047
CTAACTGC,-0.0828

# Study 3
# Target: CCNA2, cyclin fold, Cln2 fusion (human)
# Technique: yeast growth competition, sequencing
# Medium: yeast
# Setting: strong parent motif
# Relative to: not given
# Direction: higher = stronger binding
# Parent: CDKN1A docking peptide (human); SKACRRLFGPVDS; partner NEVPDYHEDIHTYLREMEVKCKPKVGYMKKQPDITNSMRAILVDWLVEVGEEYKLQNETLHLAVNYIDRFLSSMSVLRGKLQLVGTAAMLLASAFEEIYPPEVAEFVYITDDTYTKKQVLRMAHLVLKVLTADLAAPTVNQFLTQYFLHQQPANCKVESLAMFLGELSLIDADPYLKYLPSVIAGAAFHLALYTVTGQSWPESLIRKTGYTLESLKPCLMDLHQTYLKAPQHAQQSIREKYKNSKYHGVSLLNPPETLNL
Variant,normalised enrichment score
SKACNRLFGPVDS [R5N],0.458
SKQCRRLFGPVDS [A3Q],0.865
SKYCRRLFGPVDS [A3Y],2.5
SKACRRLCGPVDS [F8C],0.519
SKACRRLRGPVDS [F8R],0.293
SKACRRLFGPVFS [D12F],4.56
SKACRRLFGPVIS [D12I],5.13
SKACRRPFGPVDS [L7P],0.506
SKACRRLFGWVDS [P10W],4.31
SKACRRLFGPNDS [V11N],5.9

# Other studies, line by line
Substance,target,assay,system,conditions,how to read,endpoint,result
"PhoQ, residues 284 288 289 292 302 303 SACGEM","PhoP, residues 12 14 15 18 19 STHWV (Escherichia coli, UniProt P23836)","Sort-seq, item: YFP reporter",E. coli,"PhoQ-PhoP variant library, with: 10 µM Mg2+","relative to: high Mg2+ state, higher = stronger signaling",fold induction,23.2

# Some of these lines once more (study 2):
Oligonucleotide,E-score
CACGGACC,0.0761
AGGTCACT,0.052
CAACCGGA,0.03
ATTTAATA,0.255
